Results of several laboratories.
Lines come from different studies, so protocols differ. ± marks the error that the study gave.

O=C(c1ccc(F)cc1)C1CCN(C2Cc3c(cccc3OCC[18F])CC2O)CC1 (single isomer, unassigned; (-))  tissue uptake (Sprague-Dawley rat, male, spleen; intravenous, dose not given, 120 min): 0.376 ± 0.034 %ID/g
N=C(N)NCc1ccc(C(=O)NCCCC[C@H](NC(=O)CCCCCCC(=O)NCCCC[C@H](NC(=O)N[C@@H](CCC(=O)O)C(=O)O)C(=O)O)C(=O)O)cc1[131I]  tissue uptake (SCID mouse, PC-3 xenografts, blood; 21 h): 0.02 ± 0.01 %ID/g
CCCC[C@H](NC(=O)CCOCCOCCNC(=O)CN1CCN(CC(=O)O)CCN(CC(=O)O)CCN(CC(=O)O)CC1)C(=O)N[C@H]1CC(=O)NCCCC[C@@H](C(N)=O)NC(=O)[C@H](Cc2c[nH]c3ccccc23)NC(=O)[C@H](CCCNC(=N)N)NC(=O)[C@@H](Cc2ccccc2)NC(=O)[C@H](Cc2c[nH]cn2)NC1=O [gallium-68 labelled]  tissue uptake (C57BL/6J mice male B16-F10 tumour, pancreas; 1 h post injection, unblocked): 0.1 %ID/g
C=Cc1cc(O)cc2nc(-c3ccc(O)c([76Br])c3)oc12  tissue uptake (female C57BL/6 mouse, uterus; 1 h, high dose): 0.21 ± 0.1 %ID/g
COc1cc(C(=O)NCCOCCOCCOCCNC(=O)c2ccc([18F])nc2)ccc1NC(=O)C1NC(CC(C)(C)C)C(C#N)(c2ccc(Cl)cc2F)C1c1cccc(Cl)c1F (stereo not shown)  tissue uptake (athymic male mice, SJSA-1 xenograft, bladder; 1 h): 7.28 ± 9.23 %ID/g
COc1cc2ncnc(Oc3cccc(N[11C](=O)Nc4cc(C(C)(C)C(F)(F)F)on4)c3)c2cc1OC  tissue uptake (Balb/c nude mouse, female, A375 melanoma xenograft, heart; 6.6 MBq, 60 min): 4.69 ± 0.2 %ID/g
N=C(N)NCc1ccc(C(=O)NCCCC[C@H](NC(=O)N[C@@H](CCC(=O)O)C(=O)O)C(=O)O)cc1[211At]  tissue uptake (SCID mouse, PC-3 xenografts, brain; 1 h): 0.18 ± 0.13 %ID/g
CN[C@](C)(C[18F])C(=O)O  tissue uptake (SCID mouse SK-OV-3 xenograft, brain; 120 min, post injection): 0.2 ± 0.04 %ID/g
N=C(N)NCc1ccc(C(=O)NCCCC[C@H](NC(=O)N[C@@H](CCC(=O)O)C(=O)O)C(=O)O)cc1[131I]  tissue uptake (SCID mouse, PC-3 xenografts, muscle; 4 h): 0.14 ± 0.06 %ID/g
O=C(O)CC[C@H](NC(=O)O[C@@H](CCCCNC(=O)c1ccc([18F])cc1)C(=O)O)C(=O)O  tissue uptake (mouse, PC-3 PIP/flu xenografts, bone; 180 min): 0.63 ± 0.14 %ID/g

For quick reference, copied from above:
COc1cc(C(=O)NCCOCCOCCOCCNC(=O)c2ccc([18F])nc2)ccc1NC(=O)C1NC(CC(C)(C)C)C(C#N)(c2ccc(Cl)cc2F)C1c1cccc(Cl)c1F (stereo not shown)  tissue uptake (athymic male mice, SJSA-1 xenograft, bladder; 1 h): 7.28 ± 9.23 %ID/g
